Assay results from different studies.
Parts stem from different laboratories: compare values within a part only.
Chain of UniProt P52564 (whole entry, looked up): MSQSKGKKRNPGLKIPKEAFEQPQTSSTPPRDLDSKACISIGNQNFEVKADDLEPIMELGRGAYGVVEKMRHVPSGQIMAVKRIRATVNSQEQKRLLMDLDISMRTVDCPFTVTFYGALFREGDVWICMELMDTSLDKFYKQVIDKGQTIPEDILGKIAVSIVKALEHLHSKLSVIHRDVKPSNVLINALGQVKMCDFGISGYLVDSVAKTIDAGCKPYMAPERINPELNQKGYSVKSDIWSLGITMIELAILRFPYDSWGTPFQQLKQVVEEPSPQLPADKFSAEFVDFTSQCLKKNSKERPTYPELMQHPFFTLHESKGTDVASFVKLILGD
Chain of UniProt Q14012 (whole entry, looked up): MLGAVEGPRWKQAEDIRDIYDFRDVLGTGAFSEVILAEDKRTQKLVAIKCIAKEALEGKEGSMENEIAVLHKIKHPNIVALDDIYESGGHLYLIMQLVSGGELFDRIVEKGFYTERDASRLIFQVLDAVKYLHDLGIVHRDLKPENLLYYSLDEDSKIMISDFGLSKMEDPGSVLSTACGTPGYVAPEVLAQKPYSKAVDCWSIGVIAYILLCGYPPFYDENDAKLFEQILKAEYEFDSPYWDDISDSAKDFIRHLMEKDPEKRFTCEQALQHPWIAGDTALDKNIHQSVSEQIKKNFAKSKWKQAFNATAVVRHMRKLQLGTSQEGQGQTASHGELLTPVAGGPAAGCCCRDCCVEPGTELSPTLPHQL
Chain of UniProt Q16513 (whole entry, looked up): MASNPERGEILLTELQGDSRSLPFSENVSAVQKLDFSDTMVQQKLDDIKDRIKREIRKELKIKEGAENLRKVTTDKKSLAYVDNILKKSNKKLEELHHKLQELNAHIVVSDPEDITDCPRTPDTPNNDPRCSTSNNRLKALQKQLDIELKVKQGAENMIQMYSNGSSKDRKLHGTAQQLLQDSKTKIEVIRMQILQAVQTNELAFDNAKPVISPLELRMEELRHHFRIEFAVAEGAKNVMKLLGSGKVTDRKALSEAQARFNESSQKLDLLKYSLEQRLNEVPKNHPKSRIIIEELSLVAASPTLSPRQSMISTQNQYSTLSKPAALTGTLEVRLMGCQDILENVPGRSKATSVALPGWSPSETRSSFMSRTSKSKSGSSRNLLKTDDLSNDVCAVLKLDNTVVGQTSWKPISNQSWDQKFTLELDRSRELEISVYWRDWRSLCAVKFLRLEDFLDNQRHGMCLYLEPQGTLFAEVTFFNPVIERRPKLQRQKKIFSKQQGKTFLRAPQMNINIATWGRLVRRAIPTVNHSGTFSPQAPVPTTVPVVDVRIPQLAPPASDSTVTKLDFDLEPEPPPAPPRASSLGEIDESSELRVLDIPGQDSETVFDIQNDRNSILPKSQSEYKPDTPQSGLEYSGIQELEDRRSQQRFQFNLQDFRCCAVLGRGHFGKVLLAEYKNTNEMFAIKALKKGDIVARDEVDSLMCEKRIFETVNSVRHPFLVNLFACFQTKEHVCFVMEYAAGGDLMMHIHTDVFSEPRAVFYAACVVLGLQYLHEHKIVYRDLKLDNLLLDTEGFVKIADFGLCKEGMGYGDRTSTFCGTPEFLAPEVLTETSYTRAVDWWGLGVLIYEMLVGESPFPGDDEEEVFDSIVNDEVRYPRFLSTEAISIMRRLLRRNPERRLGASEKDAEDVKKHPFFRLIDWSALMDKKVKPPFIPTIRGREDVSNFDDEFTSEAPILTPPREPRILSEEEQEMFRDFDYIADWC
Chain of UniProt Q9H2K8 (whole entry, looked up): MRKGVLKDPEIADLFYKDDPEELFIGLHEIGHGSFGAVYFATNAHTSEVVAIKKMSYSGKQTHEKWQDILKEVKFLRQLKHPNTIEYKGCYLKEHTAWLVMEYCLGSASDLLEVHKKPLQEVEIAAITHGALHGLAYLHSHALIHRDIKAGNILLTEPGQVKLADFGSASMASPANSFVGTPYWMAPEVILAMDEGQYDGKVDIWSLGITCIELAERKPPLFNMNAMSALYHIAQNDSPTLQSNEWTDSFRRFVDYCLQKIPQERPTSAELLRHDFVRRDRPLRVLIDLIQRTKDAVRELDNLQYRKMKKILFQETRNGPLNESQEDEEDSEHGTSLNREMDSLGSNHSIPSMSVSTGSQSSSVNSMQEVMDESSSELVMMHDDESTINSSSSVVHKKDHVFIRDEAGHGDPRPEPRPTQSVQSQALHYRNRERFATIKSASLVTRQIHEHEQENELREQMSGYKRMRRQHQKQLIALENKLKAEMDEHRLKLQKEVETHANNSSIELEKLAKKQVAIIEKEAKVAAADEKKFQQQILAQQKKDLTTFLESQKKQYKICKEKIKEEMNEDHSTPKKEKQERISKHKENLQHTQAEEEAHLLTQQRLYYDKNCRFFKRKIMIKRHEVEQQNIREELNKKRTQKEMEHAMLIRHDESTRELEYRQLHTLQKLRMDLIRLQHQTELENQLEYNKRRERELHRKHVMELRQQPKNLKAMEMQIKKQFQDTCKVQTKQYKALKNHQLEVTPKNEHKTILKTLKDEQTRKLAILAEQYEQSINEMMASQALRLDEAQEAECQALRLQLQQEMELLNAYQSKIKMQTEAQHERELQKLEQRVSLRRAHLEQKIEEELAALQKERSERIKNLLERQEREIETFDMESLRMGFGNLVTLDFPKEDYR
Chain of UniProt Q13554 (whole entry, looked up): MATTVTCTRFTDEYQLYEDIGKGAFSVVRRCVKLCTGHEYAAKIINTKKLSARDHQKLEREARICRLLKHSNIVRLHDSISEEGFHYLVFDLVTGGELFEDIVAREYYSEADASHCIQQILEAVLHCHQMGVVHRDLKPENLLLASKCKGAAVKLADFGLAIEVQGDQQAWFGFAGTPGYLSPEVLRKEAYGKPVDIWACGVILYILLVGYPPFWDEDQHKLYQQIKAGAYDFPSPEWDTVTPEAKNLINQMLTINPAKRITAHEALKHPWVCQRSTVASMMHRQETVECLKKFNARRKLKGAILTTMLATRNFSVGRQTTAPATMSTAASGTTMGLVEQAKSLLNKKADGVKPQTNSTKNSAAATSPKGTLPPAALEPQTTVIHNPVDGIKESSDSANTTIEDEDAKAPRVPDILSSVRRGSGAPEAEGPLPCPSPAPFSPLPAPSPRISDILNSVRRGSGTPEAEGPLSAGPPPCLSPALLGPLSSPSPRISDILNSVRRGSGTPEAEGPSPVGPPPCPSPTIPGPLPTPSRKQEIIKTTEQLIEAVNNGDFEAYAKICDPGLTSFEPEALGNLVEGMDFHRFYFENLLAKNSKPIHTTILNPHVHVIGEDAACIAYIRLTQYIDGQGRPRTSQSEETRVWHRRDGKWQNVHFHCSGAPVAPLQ
Chain of UniProt Q13163 (whole entry, looked up): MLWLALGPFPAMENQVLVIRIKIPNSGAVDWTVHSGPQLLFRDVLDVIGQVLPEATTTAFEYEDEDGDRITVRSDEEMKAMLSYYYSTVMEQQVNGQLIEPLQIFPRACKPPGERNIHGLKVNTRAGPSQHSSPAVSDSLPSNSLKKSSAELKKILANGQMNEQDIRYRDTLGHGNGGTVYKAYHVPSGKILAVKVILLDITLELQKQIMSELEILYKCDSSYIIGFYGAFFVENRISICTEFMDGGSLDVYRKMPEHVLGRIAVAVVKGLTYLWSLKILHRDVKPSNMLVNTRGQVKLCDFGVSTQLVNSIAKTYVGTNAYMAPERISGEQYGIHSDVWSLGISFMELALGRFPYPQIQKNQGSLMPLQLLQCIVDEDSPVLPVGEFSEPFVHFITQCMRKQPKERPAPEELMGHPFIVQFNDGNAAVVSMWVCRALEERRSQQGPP
Chain of UniProt P10721 (whole entry, unmodified, looked up): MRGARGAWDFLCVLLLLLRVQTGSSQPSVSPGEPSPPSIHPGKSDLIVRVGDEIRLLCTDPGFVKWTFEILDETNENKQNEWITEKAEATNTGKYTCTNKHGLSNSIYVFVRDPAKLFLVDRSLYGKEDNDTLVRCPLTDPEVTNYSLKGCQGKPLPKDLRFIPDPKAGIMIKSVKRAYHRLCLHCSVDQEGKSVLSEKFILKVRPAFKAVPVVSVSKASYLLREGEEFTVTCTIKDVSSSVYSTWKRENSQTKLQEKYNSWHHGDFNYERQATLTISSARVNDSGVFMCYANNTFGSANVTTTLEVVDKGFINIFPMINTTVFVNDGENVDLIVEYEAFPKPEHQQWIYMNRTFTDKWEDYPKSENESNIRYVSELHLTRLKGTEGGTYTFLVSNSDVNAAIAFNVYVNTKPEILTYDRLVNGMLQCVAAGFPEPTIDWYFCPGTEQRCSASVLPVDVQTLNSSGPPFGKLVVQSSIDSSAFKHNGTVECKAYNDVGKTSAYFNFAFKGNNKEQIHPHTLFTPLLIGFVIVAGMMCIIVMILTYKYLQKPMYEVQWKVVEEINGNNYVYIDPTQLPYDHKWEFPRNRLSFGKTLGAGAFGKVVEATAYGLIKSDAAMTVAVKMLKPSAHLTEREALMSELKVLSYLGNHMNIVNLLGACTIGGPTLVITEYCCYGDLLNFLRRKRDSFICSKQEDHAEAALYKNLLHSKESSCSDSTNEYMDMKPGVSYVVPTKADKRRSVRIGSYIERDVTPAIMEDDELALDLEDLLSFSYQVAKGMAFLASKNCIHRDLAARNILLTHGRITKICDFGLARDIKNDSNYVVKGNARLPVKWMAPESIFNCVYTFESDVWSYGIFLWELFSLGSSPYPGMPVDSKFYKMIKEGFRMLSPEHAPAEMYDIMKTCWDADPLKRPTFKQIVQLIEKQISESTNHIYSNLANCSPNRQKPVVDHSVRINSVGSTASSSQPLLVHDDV

Set 1
SMILES: CO[C@@H](C)c1c(Nc2ccc([C@@H](N(C)C(=O)C3CCS(=O)(=O)CC3)C(F)(F)F)cc2)cnc2cc(Cl)nn12
Read-out: cell-free assay
Technique: competition with immobilised ligand
Concentration: 1 µM
Measurement: remaining binding
MAP2K5 (Homo sapiens, UniProt Q13163): 91%
Tyrosine-protein kinase ABL1, phosphorylated (ABL1, Homo sapiens, UniProt P00519, H396P): 98%
EGFR (Homo sapiens, UniProt P00533, del746-750): 100%
KIT (Homo sapiens, UniProt P10721, V559D/V654A): 88%
Tyrosine-protein kinase ABL1, non-phosphorylated (ABL1, Homo sapiens, UniProt P00519, T315I): 100%
Ribosomal protein S6 kinase alpha-5, N-terminal kinase domain (RPS6KA5, Homo sapiens, UniProt O75582): 82%
PLK4 (Homo sapiens, UniProt O00444): 100%
CDK18 (Homo sapiens, UniProt Q07002): 99%
Ribosomal protein S6 kinase alpha-6, N-terminal kinase domain (RPS6KA6, Homo sapiens, UniProt Q9UK32): 100%
EGFR (Homo sapiens, UniProt P00533, L861Q): 100%
PIK3CA (Homo sapiens, UniProt P42336, Q546K): 100%
CAMK2B (Homo sapiens, UniProt Q13554): 96%
PKN2 (Homo sapiens, UniProt Q16513): 88%
Ribosomal protein S6 kinase alpha-3, N-terminal kinase domain (RPS6KA3, Homo sapiens, UniProt P51812): 100%
TAOK3 (Homo sapiens, UniProt Q9H2K8): 100%

Set 2
SMILES: CC(=O)N[C@@H](Cc1c[nH]c2ccccc12)C(=O)N[C@@H](CCC(=O)C=[N+]=[N-])C(=O)OC(C)C
Species: mouse, EL4 tumour-bearing
Sample: EL4 tumour
Dose: dose not given
Relative to: vehicle
Measurement: log2 fold change
item: N-acetylalanine: 0.548
item: methionine: 0.225
item: S-methylcysteine: -0.684
item: methylphosphate: 0.386
item: gamma-glutamyl-alpha-lysine: -0.303
item: UDP-N-acetylglucosamine/galactosamine: -0.265
item: aspartate: 0.203

Set 3
Structure (SMILES): COc1ccc2[nH]c3c4[nH]c5ccc(OC)cc5c4c4c(c3c2c1)C(=O)NC4=O
Concentration: 1 µM
Measurement: remaining binding
ABL1 (Homo sapiens, UniProt P00519, F317I): 73%
CAMK1 (Homo sapiens, UniProt Q14012); binding: 80%
MAP2K6 (Homo sapiens, UniProt P52564); binding: 97%
DSTYK (Homo sapiens, UniProt Q6XUX3); binding: 27%
EPHB2 (Homo sapiens, UniProt P29323); binding, competition with immobilised ligand: 84%
CDC42BPA (Homo sapiens, UniProt Q5VT25); binding, competition with immobilised ligand: 76%

Set 4
Species: human
Sample: microsomes or S9
Concentration: 2 µM
Time: 0.5 h
Measurement: remaining compound
CC(C)n1ncc2c1NC(=O)CC21C(=O)Nc2ccccc21 (stereo not shown): 18.1%
c1cnc2c(C3NCCc4c3[nH]c3ccccc43)cccc2c1 (stereo not shown): 101%
Cc1nnc2c3ccccc3nc(-c3ccccc3Cl)n12: 80.4%
COCCOc1cc(=O)n2c(c1C(=O)Nc1cccc(OC)c1)CCOCC2: 43.8%
Cc1nn(-c2cccc(Cl)c2)c(Cl)c1CN1CCn2c(n[nH]c2=O)C1: 77.8%
O=C(NCc1cn2ccsc2n1)c1c[nH]c2nccc(Cl)c12: 61.5%
